{"data": "Assay results from different studies", "note": "Each numbered part is a random draw from the data of one study; scales do not carry over between parts.", "sequence of UniProt Q8WYB5 (whole entry, looked up)": "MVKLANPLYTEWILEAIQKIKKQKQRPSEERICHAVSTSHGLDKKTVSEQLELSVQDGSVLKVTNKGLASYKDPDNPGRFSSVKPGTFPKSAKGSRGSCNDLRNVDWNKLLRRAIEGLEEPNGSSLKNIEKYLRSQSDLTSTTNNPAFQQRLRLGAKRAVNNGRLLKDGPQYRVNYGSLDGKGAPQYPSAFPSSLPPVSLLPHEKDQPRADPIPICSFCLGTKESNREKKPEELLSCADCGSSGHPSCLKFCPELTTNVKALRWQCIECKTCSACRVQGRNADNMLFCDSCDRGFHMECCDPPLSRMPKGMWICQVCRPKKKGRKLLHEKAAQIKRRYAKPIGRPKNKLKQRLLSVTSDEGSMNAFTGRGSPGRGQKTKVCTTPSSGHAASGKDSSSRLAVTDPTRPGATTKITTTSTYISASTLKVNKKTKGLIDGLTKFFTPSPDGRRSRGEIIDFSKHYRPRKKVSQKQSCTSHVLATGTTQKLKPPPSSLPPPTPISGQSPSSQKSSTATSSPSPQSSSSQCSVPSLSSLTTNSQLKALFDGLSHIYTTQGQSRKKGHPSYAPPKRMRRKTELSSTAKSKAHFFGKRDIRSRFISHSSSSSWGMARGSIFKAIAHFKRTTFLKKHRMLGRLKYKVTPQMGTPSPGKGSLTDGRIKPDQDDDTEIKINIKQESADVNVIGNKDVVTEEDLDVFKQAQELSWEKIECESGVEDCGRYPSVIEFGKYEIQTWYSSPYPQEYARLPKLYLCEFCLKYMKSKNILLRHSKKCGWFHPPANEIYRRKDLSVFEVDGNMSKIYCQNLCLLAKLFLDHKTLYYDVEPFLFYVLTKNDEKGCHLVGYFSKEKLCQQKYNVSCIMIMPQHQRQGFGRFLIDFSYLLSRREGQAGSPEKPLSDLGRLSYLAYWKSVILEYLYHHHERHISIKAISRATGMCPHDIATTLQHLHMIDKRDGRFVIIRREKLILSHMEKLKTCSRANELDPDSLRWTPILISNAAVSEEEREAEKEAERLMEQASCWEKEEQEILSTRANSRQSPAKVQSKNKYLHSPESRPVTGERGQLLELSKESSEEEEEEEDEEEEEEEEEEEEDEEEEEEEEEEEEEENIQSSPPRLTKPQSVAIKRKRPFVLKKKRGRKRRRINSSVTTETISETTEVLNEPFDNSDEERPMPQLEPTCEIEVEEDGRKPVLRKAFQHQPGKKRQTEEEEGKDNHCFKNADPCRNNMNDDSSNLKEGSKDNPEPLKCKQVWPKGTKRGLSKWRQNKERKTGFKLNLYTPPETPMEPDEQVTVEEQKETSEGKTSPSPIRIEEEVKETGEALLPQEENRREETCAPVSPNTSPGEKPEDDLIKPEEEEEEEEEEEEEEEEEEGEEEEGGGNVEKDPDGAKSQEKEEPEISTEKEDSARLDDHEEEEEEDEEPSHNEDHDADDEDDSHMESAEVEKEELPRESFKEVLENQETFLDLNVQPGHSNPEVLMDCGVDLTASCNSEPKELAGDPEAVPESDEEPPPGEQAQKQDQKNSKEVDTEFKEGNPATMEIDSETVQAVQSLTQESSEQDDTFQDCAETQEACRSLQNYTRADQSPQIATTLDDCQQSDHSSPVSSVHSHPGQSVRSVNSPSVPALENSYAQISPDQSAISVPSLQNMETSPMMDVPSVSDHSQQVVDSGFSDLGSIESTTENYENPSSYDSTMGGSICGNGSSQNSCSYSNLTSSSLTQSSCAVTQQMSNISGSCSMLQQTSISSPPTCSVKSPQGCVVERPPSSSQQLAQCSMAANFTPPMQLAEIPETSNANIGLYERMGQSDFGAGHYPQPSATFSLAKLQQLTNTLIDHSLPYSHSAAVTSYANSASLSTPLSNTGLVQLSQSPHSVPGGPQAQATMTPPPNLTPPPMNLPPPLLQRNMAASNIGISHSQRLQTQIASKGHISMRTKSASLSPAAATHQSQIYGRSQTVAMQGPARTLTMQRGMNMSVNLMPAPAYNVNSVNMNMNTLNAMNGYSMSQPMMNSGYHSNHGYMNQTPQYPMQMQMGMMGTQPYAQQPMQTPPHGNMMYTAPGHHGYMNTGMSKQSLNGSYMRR"}
{"data": "Set 1", "target": "Centromere-binding protein 1, full length, His-tagged (CBF1, Saccharomyces cerevisiae, UniProt P17106, residues 1-351)", "technique": "competition protein-binding microarray", "molecule type": "double-stranded DNA, one strand shown", "sample": "in vitro", "tested at": "2 µM", "setting": "whole 60-bp probe, lowest competitor level", "added": "Pho4 competitor, 0.05 µM", "direction": "higher = stronger binding", "constant ends, left off below": "… GTCTTGATTCGCTTGACGCTGCTG", "sequence of UniProt P17106 (whole entry, looked up)": "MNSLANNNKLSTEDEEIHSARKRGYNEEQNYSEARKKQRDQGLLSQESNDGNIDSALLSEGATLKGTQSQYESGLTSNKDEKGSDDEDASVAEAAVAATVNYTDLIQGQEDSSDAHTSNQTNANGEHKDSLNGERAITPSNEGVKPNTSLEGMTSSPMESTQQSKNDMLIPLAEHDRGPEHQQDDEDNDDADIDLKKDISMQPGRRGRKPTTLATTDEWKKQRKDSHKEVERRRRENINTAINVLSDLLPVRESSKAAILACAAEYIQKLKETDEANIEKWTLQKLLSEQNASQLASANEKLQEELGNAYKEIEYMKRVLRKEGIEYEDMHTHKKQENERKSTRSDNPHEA"}
{"Sequence": "CGGGGTTAAGTTTGTGATGTGGGTGGCTTGCAGCAG", "fluorescence intensity [a.u.]": 84.6}
{"Sequence": "TGTTCAAAAAGCCATCACGTGGAACCCCGAAAAAAA", "fluorescence intensity [a.u.]": 3300}
{"Sequence": "TATGGGCTTATTAAGCTCGTGCTGTAAGATCTTGAA", "fluorescence intensity [a.u.]": 116}
{"Sequence": "GTCTTGTCTCATTTTCACGTGTTCTTCCCCACTTCA", "fluorescence intensity [a.u.]": 1080}
{"Sequence": "TCACCGGGTGCCGGCCACGCAATATATAAAACGGTA", "fluorescence intensity [a.u.]": 69}
{"Sequence": "GTCTTGTCTCATTGTCACATCACTTTCCCCACTTCA", "fluorescence intensity [a.u.]": 121}
{"Sequence": "TAACGAAAATGTTAGCACGTCGCGTTTATGGCCCCA", "fluorescence intensity [a.u.]": 89.5}
{"Sequence": "CGTCTAGCAATACCGCACATGTTATTTGTGCTGTAG", "fluorescence intensity [a.u.]": 137}
{"Sequence": "GTTTCGCCAGTTTCACTCATGACAAGTCTGCCAGTT", "fluorescence intensity [a.u.]": 71.3}
{"Sequence": "CTAACGAAGGTTTTTCACGTGGGTTACAAGCCAAGT", "fluorescence intensity [a.u.]": 732}
{"Sequence": "GCTACCCCGGCCTGCCGTGTGGCTCTCTGTGCGAAG", "fluorescence intensity [a.u.]": 52.1}
{"Sequence": "GACGCGCGACCCGCGCGCGTGCCACTGCAAGCTCTG", "fluorescence intensity [a.u.]": 64.7}
{"Sequence": "TGCGCAACAACTTGTCACTAGACTTTATGTCTAGAA", "fluorescence intensity [a.u.]": 74.9}
{"Sequence": "CGTCCTAGTGATTTTCACGTGCAATCCATGAGGAAG", "fluorescence intensity [a.u.]": 883}
{"Sequence": "CTAACGAAGGTTTGCTCTGTGGGTGACAAGCCAAGT", "fluorescence intensity [a.u.]": 69.3}
{"Sequence": "CCCTCAAGTTTCTCTTCTGGCGATTTGGGAATTTAC", "fluorescence intensity [a.u.]": 66.9}
{"Sequence": "CCAAAGGGTCCCCATCACGTCTGGTCCGGGCTTTCC", "fluorescence intensity [a.u.]": 60}
{"Sequence": "TACGACGGCATTGGGCCCGTGGGTACTCACCGGGTT", "fluorescence intensity [a.u.]": 49.6}
{"Sequence": "CACCAGCCGCCATTGAACGTGCAAACAGGCACCTGT", "fluorescence intensity [a.u.]": 64.7}
{"Sequence": "TTGGGATATTAGCGTCACAATGTTTTAACTATTTGG", "fluorescence intensity [a.u.]": 83.1}
{"Sequence": "CTAACGAAGGTTTGGTTTGTGGGTGACAAGCCAAGT", "fluorescence intensity [a.u.]": 84.5}
{"Sequence": "CATACCCAACCTTTTCACGTGTAATAAGATATTTGT", "fluorescence intensity [a.u.]": 885}
{"Sequence": "TCTTCCGCGATGTTTCTCGTGGTGAGGCTATGGGCA", "fluorescence intensity [a.u.]": 63.4}
{"Sequence": "AGAGTGGTGCTGAAGCTCGTGACGGGAACAAGATCA", "fluorescence intensity [a.u.]": 276}
{"Sequence": "ACAACTGCGGGGACGCATGTGCTCTAAAGAAAGCAG", "fluorescence intensity [a.u.]": 128}
{"data": "Set 2", "target": "RNA binding protein fox-1 homolog 2, RRM domain, GST-SBP tag (RBFOX2, Homo sapiens, UniProt O43251-10, residues 100-194)", "technique": "RNA Bind-n-Seq", "molecule type": "RNA", "sample": "in vitro", "tested at": "365 nM", "setting": "natural RNA segment, single round, ends assumed", "reference": "no-protein control", "direction": "higher = stronger binding", "constant ends, left off below": "GGGAGUUCUACAGUCCGACGAUC … UGGAAUUCUCGGGUGCCAA", "Construct (chain)": "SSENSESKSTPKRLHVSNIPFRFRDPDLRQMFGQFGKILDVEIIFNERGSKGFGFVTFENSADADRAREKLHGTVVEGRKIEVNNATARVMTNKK"}
{"Sequence": "CUCUGCCUUCUCCACCUCCGAGGCUGUGCAUUCAUCCAAUUAGUGUCAUGAAUGUUUCCCCUUUAUUUUUCCAAUAAAAAAAAGCAGUGGGAUGAAAAUUGCUUUGAUAU", "RBNS enrichment (R)": 1.22}
{"Sequence": "UCUGGGACUCAGUCAGAGCGCUUUGGCUGAAUGAGGGGUGGAACCGAGGGAAGAAGGUGCGUCGGAGUGGCAGAUGCAGGAAAUGAGCUGUCUAUUAGCCUUGCCUGCCC", "RBNS enrichment (R)": 0.658}
{"Sequence": "AGUGAUGCUGGAAAAGUCAUAGGACUGGCAAAGCAACUGUUUAAACCCUUUGUAACCGGGGCCUUGCCCCCACCUCCUGUCUUUUCUCCUUGCCUUCCCCACUCCUGUGU", "RBNS enrichment (R)": 0.338}
{"Sequence": "UUGAUCUGUUCAACAAAUAUUUACUAAACACUUCUAAGCUAACAUUAGGGCAGUGACUGAGGUGGAAACCCAGCUCUUUAGACAGCUGUCAUCCUAGGAUAGCUUCCUGG", "RBNS enrichment (R)": 0.965}
{"Sequence": "UAUUCUGCAGAAAAUUAAUUGAAAUACCUAUUCAAGAAGAUAGUUGUAAAGAUAUUGUAUCUCCUUUAAUAUACUCCUUAAAAAUGUAUGUUGGUUUAGCGUUGUUUUGU", "RBNS enrichment (R)": 0.789}
{"Sequence": "AGUCAGCACAGGCCUAGCAAGGCCCUGACAGCCACAUCGACUGAAGAUUGUCAAGGCGAUAGAAAACCACUGCCAGAAAGACCUGUAAGAAGGGAUUUGUUCUAUACGAG", "RBNS enrichment (R)": 0.332}
{"Sequence": "GUGUCAAUAUCAUUGAUUUCUUUUUCAUAUGAAGAUCCACAUGCAUUGUAAGAUUGUGAAGAUAUAUAAAAUUGAUGAAUUAAGAGAAAUUAUGCCACUUUCCUAUAGUU", "RBNS enrichment (R)": 1.03}
{"Sequence": "GAAGCAUGAUGACCCACCUGUCUGGGAAGAGAAAACCUCAAGAAGGCAAAGUGCAGUGCGUGUUUGUGGUCAAGAUGAGGGUGUUAAGGGAUGUUGGAGUCUGGUGUAGA", "RBNS enrichment (R)": 4.19}
{"Sequence": "UGCCCACUGUUGGCGGCUCUGUGUGUUAAUAGGCUAGGGAGAGGAGUGUCUGCUGCCGCUUGCUUCCUGCCACGUUCUUGGAGAGGUGUCAAGUUUGGUAUGGCCAGGGA", "RBNS enrichment (R)": 0.31}
{"Sequence": "CAGGCCACUCUAGAAGCCGAGCCGUCACACCUCAGGCGUGUGCGGGGCGGGGACGGGGGGUCUCCUGGUUACAUUUUGGAUUAAACCUGUUUCCCGGUUAUGUGUAGGGA", "RBNS enrichment (R)": 1.06}
{"Sequence": "AGUAGAGAUUUCAUAGCUAUUUAGAGAUAUUUUCCAUUUUAAGAAAACCCGACAACAUUUCUGCCAGGUUUGUUAGGAGGCCACAUGAUACUUAUUCAAAAAAAUCCUAG", "RBNS enrichment (R)": 0.641}
{"Sequence": "UCCGGACCUACCUCAGGGAGCUGAGCGUGCAGGCGCUCCAGGGCAGGCCUGGGACAGAGUCAAGGCUCAGAGAAUAAAGGUAGCUAAUCUCAUCAUAAUAUUUUUAUUAG", "RBNS enrichment (R)": 0.785}
{"data": "Set 3", "Sequence": "GGCCTGCGCAGGCC (dsDNA)", "technique": "EMSA", "molecule type": "double-stranded DNA, one strand shown"}
{"target": "KAT6B 1-100 (Homo sapiens, UniProt Q8WYB5)", "binding": "binds"}
{"target": "KAT6A 85-181 (Homo sapiens, UniProt Q92794)", "binding": "no binding"}
{"target": "KAT6A 1-85 (Homo sapiens, UniProt Q92794)", "binding": "binds"}
{"data": "Set 4", "target": "TAR DNA-binding protein 43, full length, His tag (TARDBP, Homo sapiens, UniProt Q13148, residues 1-414)", "technique": "RNA Bind-n-Seq", "molecule type": "RNA", "sample": "in vitro", "tested at": "20 nM", "setting": "6-mer, flanks averaged, single round", "added": "150 mM LiCl", "reference": "input library", "direction": "higher = stronger binding"}
{"Sequence": "GGAGGG", "6-mer enrichment (R)": 1.4}
{"Sequence": "CCUAAA", "6-mer enrichment (R)": 0.857}
{"Sequence": "CCAGCU", "6-mer enrichment (R)": 0.9}
{"Sequence": "UCUUGC", "6-mer enrichment (R)": 0.937}
{"Sequence": "UACUAU", "6-mer enrichment (R)": 0.904}
{"Sequence": "CCUACC", "6-mer enrichment (R)": 0.949}
{"Sequence": "UGAGGG", "6-mer enrichment (R)": 1.32}
{"Sequence": "UACGCA", "6-mer enrichment (R)": 0.878}
{"Sequence": "CUAGUG", "6-mer enrichment (R)": 1.03}
{"Sequence": "UAUUGU", "6-mer enrichment (R)": 1.13}
{"Sequence": "UUAGUA", "6-mer enrichment (R)": 1.01}
{"Sequence": "CGUACU", "6-mer enrichment (R)": 0.838}
{"Sequence": "CCAAUU", "6-mer enrichment (R)": 0.96}
{"Sequence": "CGGAUG", "6-mer enrichment (R)": 1.02}
{"Sequence": "GUCCGU", "6-mer enrichment (R)": 0.948}
{"Sequence": "CGAUAU", "6-mer enrichment (R)": 0.85}
{"Sequence": "GCGACC", "6-mer enrichment (R)": 0.881}
{"Sequence": "CCGUGC", "6-mer enrichment (R)": 0.927}
{"data": "Set 5", "target": "Interferon regulatory factor 5, full length, phosphomimetic (IRF5, Homo sapiens, UniProt Q13568-2, residues 1-514, S451D/S453D/S456D/S462D)", "technique": "protein-binding microarray", "molecule type": "double-stranded DNA, one strand shown", "sample": "in vitro", "tested at": "940 nM top", "setting": "60-bp whole probe", "added": "salmon DNA 0.4 mg/ml", "reference": "random background probes", "direction": "higher = stronger binding", "constant ends, left off below": "GCCTAGCAC … GTCTTGATTCGCTTGACGCTGCTG"}
{"Sequence": "TCATATGTGACCTTTTTAACTGTGCTA", "fitted relative affinity [z-score]": 0.242}
{"Sequence": "TTATGTATCGACTATCGGTTAGTGCTA", "fitted relative affinity [z-score]": 2.85}
{"Sequence": "TTAGGACTGGGAACTGGGTTAGTGCTA", "fitted relative affinity [z-score]": -0.45}
{"Sequence": "AAATCTAAAAAGTCTCTGGGAGTGCTA", "fitted relative affinity [z-score]": -0.244}
{"Sequence": "TTAGGTATCGAGTATCGGTTAGTGCTA", "fitted relative affinity [z-score]": 6.4}
{"Sequence": "GACGATTTCGGGTTTCGAGGCGTGCTA", "fitted relative affinity [z-score]": 2.56}
{"Sequence": "TCAAGTTTCTTTTCTTTACTGTGCTAG", "fitted relative affinity [z-score]": 2.53}
{"Sequence": "TCAAGACTCATAATGGCACTGTGCTAG", "fitted relative affinity [z-score]": -0.474}
{"Sequence": "TCAAGAGTAGTTTTTCAAACTGTGCTA", "fitted relative affinity [z-score]": -0.401}
{"Sequence": "GACGGTATCCTACTGCTGATGTGCTAG", "fitted relative affinity [z-score]": -0.0385}
{"Sequence": "TAATTTTTTAGCTTCTCAATGTGCTAG", "fitted relative affinity [z-score]": 0.471}
{"Sequence": "TCGTGGATTGCGACCCCTAGGTGCTAG", "fitted relative affinity [z-score]": -0.439}
{"Sequence": "GGCGATTTCAGACTGGAGACGTGCTAG", "fitted relative affinity [z-score]": -0.652}
{"Sequence": "GCCGATTTCAGTTCCGAGACGTGCTAG", "fitted relative affinity [z-score]": 1.22}
{"Sequence": "TCACTTCTCCCTTTCAGACTGTGCTAG", "fitted relative affinity [z-score]": 0.988}
{"Sequence": "GTCGAACTGAGACTGGAGACGTGCTAG", "fitted relative affinity [z-score]": -0.138}
{"Sequence": "TCAAATTTTAATAACACACTGTGCTAG", "fitted relative affinity [z-score]": 0.235}
{"Sequence": "TTAGGTATCAGTATCGATTAGTGCTAG", "fitted relative affinity [z-score]": 6.76}
{"data": "Further values, each from its own experiment"}
{"Substance": "PhoQ, residues 284 288 289 292 302 303 SACGEM", "target": "PhoP, residues 12 14 15 18 19 IQSYL (Escherichia coli, UniProt P23836)", "test": "Sort-seq, item: YFP reporter", "test system": "E. coli", "setting": "PhoQ-PhoP variant library, added: 10 µM Mg2+", "scale": "reference: high Mg2+ state, higher = stronger signaling", "measurement": "fold induction", "result": 14.6}
